# Assay results gathered from unrelated publications.
# A part holds a random share of what one study measured.

# Set 1
# Target: Interferon regulatory factor 3, full length, phosphomimetic (IRF3, Homo sapiens, UniProt Q14653, residues 1-427, S386D/S396D/S398D/S402D/T404D/S405D)
# Method: protein-binding microarray
# Molecule type: double-stranded DNA, one strand shown
# Sample: in vitro
# Concentration: 2540 nM top
# Notes: 60-bp whole probe
# With: salmon DNA 0.4 mg/ml
# Reference: random background probes
# Reading: higher = stronger binding
# Constant ends, left off below: GCCTAGCAC … GTGCTAGGTCTTGATTCGCTTGACGCTGCTG
# Residues (chain): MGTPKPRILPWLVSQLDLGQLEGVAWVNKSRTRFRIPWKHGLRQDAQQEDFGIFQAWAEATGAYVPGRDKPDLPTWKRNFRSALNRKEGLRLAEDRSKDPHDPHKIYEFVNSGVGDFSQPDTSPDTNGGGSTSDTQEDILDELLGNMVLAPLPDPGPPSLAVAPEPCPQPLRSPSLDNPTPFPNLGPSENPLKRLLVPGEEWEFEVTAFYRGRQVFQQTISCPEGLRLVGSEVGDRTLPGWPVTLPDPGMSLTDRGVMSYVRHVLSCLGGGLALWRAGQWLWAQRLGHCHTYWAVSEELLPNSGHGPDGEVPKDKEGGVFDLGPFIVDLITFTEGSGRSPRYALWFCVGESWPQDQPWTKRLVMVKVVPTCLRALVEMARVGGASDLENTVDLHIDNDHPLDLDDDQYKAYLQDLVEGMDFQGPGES
Sequence,fitted relative affinity [z-score]
CCCTGTGTCCACAGCTGGAT,0.153
GACGAACTTAGTATCGAGAC,0.517
GACGGACTGGGTTTTGGGAC,-0.508
GTAGATATCAGTATCGATTA,2.03
TTAGGTCTCCTTATCCTTTA,2.87
TTGGGTCTCGGTCTCGGTTA,0.419
TTACGTATCGGTATCGGTTA,5.34

# Set 2
# Target: Histone acetyltransferase KAT6A, both winged helices, GST fusion (KAT6A, Homo sapiens, UniProt Q92794, residues 1-181)
# Method: protein binding microarray
# Molecule type: double-stranded DNA, one strand shown
# Sample: in vitro
# Concentration: not given
# Notes: 8-mer, flanks averaged, mean of 2 arrays, mostly near background
# Reference: not given
# Reading: higher = stronger binding
# Construct (chain): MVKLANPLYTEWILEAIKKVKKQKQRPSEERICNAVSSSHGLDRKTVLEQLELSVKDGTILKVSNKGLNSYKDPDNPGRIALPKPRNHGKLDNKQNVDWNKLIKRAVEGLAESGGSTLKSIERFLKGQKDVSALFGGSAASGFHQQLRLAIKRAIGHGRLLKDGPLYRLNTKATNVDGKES
Sequence,E-score
AAAAAGTA,-0.0427
AGGGCATC,-0.203
GAGACCAA,0.00449
CCGTGTAC,0.23
CATTTTAC,0.0455
CTCAAAAG,0.00543
AAATCACT,-0.279
CAGGCAGC,-0.106

# Set 3
# Target: Prothrombin, mature alpha-thrombin (F2, Homo sapiens, UniProt P00734)
# Method: aptamer microarray, sandwich
# Molecule type: DNA with 2'F-ANA
# Sample: in vitro
# Concentration: 200 nM
# Notes: whole 15-mer aptamer, many near background
# With: Cy3 exosite-II aptamer, 400 nM
# Reading: higher = stronger binding
# Sequence: GGTTGGTGTGGTTGG
Modification,mean fluorescence intensity [a.u.]
2'F-ANA at 7 9 11 14,183
2'F-ANA at 2 4 5 7 8 9 14,44.5
2'F-ANA at 3 7 11 13 14 15,740
2'F-ANA at 2 4 5 6 9 10 12 13,61
2'F-ANA at 1 3 4 6 8 9 10 11 12 14,61.3
2'F-ANA at 1 2 3 5 6 7 8 9 10 11 14 15,58.2
2'F-ANA at 5 7 9 13 15,52.4
2'F-ANA at 1 2 5 8 11 14 15,51.1
2'F-ANA at 3 5 6 7 8 10 12 13 14 15,71.1
2'F-ANA at 1 4 6 9 10 11 13 14 15,50.8
2'F-ANA at 1 2 3 4 5 6 8 13,64.8

# Single results of other studies
Substance,target,assay,test system,setting,scale,measurement,value
"PhoQ, residues 284 288 289 292 302 303 GNNTDL","PhoP, residues 12 14 15 18 19 VQALL (Escherichia coli, UniProt P23836)","Sort-seq, item: YFP reporter",E. coli,"PhoQ-PhoP variant library, with: 10 µM Mg2+","reference: high Mg2+ state, higher = stronger signaling",fold induction,5.8

# For quick reference, copied from above (set 1):
Sequence,fitted relative affinity [z-score]
GACGGACTGGGTTTTGGGAC,-0.508
CCCTGTGTCCACAGCTGGAT,0.153
TTACGTATCGGTATCGGTTA,5.34
GACGAACTTAGTATCGAGAC,0.517
TTAGGTCTCCTTATCCTTTA,2.87
